Results gathered from unrelated publications.
Protocols differ between the studies behind these lines. Numbers after ± are the reported error.
Chain of UniProt O60218 (whole entry, looked up): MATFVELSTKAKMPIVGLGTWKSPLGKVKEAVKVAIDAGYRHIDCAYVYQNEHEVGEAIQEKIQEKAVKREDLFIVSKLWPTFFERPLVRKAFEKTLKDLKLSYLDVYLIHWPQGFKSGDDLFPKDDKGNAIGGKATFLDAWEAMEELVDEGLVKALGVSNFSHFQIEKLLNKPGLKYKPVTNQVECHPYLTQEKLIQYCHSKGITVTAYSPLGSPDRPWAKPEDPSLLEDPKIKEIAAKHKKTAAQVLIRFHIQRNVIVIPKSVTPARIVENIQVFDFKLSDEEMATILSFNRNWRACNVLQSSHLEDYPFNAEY
Chain of UniProt Q99873 (whole entry, looked up): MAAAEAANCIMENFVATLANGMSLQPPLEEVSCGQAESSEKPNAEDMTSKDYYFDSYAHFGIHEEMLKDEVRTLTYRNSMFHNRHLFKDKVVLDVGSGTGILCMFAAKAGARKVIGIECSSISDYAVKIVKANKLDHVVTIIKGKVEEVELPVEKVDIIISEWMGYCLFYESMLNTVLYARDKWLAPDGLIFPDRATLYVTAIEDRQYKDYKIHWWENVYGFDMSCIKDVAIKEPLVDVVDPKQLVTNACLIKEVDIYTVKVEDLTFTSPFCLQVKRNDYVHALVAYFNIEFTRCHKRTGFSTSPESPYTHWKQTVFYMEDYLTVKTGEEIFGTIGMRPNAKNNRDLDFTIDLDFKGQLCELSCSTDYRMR
Chain of UniProt P28074 (whole entry, looked up): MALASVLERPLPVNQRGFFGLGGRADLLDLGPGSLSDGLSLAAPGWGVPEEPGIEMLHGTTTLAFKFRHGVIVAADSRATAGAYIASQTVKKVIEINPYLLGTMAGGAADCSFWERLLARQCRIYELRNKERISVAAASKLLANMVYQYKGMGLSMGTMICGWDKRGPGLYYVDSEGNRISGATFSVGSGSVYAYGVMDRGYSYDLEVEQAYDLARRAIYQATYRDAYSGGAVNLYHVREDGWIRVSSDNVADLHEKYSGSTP
Chain of UniProt P48730 (whole entry, looked up): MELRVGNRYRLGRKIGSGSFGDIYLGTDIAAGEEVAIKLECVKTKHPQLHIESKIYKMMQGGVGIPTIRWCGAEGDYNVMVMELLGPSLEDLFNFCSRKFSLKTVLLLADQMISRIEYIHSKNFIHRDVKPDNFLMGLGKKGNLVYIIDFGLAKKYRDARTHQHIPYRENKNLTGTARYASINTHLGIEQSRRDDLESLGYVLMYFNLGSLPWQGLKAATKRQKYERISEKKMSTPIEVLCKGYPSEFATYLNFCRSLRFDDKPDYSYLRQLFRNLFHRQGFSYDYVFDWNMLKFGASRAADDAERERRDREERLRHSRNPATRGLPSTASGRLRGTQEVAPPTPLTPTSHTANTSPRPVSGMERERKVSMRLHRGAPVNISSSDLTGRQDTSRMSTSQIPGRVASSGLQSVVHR
Chain of UniProt P10632 (whole entry, looked up): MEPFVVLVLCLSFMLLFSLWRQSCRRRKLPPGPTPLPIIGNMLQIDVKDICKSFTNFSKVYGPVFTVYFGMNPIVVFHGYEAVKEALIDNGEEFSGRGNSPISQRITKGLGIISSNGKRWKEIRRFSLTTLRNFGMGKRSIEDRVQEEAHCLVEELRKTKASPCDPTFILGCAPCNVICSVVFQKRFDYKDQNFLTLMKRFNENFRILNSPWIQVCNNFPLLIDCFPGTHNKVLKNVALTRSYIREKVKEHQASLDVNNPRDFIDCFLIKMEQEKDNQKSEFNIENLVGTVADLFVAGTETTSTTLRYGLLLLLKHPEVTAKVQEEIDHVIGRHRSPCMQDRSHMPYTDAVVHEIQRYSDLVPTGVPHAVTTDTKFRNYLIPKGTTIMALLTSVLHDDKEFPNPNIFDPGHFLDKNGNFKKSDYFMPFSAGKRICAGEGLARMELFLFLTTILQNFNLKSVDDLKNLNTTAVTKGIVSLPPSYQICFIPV
Chain of UniProt O15294 (whole entry, looked up): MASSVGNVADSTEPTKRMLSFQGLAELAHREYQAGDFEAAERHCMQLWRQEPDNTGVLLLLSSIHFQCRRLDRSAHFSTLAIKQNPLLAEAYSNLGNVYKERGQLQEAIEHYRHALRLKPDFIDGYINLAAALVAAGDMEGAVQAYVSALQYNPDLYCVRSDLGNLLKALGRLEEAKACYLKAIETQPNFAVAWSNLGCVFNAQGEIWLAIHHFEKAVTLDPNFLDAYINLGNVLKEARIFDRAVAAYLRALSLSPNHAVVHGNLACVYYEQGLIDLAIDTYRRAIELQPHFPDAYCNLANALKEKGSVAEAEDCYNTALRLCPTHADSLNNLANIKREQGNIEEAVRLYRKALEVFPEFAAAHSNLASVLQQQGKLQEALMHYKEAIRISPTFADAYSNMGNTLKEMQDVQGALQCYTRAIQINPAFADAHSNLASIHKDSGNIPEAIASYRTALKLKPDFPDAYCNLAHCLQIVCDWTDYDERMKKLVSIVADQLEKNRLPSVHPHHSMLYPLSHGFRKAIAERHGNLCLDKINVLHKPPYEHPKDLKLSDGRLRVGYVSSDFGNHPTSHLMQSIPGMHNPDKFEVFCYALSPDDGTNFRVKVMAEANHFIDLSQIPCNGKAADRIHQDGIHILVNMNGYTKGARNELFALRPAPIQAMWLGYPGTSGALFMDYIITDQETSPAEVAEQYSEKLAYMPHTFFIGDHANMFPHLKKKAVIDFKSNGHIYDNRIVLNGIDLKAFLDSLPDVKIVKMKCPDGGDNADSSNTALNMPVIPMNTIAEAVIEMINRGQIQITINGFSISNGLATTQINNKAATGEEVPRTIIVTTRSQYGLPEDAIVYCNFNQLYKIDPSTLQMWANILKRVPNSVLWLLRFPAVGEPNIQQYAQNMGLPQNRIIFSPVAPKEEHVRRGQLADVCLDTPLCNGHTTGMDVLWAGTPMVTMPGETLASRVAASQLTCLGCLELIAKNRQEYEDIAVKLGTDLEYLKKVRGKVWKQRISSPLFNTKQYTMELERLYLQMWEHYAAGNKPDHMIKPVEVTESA
Chain of UniProt Q01650 (whole entry, looked up): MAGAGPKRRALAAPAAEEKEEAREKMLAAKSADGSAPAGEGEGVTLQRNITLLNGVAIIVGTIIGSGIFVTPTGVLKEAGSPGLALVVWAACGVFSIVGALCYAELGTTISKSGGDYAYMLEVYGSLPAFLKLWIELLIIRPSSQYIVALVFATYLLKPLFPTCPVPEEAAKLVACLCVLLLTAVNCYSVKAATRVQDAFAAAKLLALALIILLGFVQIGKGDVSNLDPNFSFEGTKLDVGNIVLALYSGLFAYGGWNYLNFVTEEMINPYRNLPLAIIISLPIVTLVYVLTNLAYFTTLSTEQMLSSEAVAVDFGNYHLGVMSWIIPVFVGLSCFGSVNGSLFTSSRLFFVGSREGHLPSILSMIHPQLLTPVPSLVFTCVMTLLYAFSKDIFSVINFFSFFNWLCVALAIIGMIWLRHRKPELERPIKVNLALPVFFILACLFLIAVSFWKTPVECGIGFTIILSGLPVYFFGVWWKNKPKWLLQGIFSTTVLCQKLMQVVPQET
Chain of UniProt Q9NYL2 (whole entry, looked up): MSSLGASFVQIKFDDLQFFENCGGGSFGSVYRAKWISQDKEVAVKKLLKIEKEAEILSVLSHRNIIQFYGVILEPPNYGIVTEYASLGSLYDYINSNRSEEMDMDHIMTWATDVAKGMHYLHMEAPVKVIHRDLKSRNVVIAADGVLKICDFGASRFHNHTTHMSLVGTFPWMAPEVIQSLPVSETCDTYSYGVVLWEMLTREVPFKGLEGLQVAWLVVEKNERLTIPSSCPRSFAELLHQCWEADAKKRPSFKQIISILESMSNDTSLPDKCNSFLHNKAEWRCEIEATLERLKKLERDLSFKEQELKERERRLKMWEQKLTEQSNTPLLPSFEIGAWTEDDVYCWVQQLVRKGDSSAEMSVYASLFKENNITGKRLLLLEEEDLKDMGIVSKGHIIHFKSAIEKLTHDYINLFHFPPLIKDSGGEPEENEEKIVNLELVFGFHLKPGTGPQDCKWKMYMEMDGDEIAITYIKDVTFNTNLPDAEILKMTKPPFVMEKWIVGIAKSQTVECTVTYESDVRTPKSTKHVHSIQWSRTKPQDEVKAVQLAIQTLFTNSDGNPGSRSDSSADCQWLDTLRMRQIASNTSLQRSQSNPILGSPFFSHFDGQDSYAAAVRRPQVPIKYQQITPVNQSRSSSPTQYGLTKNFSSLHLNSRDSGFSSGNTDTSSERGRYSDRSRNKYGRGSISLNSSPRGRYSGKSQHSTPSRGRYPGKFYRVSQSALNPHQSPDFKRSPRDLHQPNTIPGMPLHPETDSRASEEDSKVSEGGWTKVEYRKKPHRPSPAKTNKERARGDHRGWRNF
Chain of UniProt A5GZW8 (whole entry, looked up): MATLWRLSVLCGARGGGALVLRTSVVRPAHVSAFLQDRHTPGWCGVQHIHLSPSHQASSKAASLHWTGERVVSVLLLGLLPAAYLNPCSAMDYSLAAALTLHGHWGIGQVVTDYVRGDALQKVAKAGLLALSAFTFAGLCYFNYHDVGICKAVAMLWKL
Chain of UniProt D0VWV4 (whole entry, looked up): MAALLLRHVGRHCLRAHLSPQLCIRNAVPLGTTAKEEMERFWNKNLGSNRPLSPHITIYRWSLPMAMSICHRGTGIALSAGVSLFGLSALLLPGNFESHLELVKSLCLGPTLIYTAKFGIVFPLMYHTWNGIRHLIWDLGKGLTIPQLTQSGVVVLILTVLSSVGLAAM
Chain of UniProt Q04760 (whole entry, looked up): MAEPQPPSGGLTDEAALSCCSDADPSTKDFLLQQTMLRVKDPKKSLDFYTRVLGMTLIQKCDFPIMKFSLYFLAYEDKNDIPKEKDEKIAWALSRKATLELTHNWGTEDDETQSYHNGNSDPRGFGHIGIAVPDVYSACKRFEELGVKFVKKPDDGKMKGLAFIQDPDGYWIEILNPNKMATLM

With `C=C(NC(=O)C(=C)NC(=O)c1csc(C2=NC3c4csc(n4)C4NC(=O)c5csc(n5)C(C(C)(O)C(C)O)NC(=O)C5CSC(=N5)C(=CC)NC(=O)C(C(C)O)NC(=O)c5csc(n5)C3(CC2)NC(=O)C(CCC(N)=O)NC(=O)C(=C)NC(=O)C(C)NC(=O)C(C(C)CC)NC2C=Cc3c(C(C)O)cc(nc3C2O)C(=O)OC4C)n1)C(N)=O` (stereo not drawn) the IC50 was 4.19 ± 0.48 µM (Proteasome Macropain subunit MB1 (PSMB5, Homo sapiens, UniProt P28074); chymotrypsin-like activity, inhibitor; purified 20S proteasome; 15 min preincubation, 37 °C, together with: Suc-Leu-Leu-Val-Tyr-AMC substrate).
`O=C(O)c1ccc(/N=N/c2cc(C(=O)O)c(O)c3ccccc23)cc1` gave an IC50 of 4.14 µM (Lactoylglutathione lyase (GLO1, Homo sapiens, UniProt Q04760); enzyme activity, inhibitor).
`CCCCCC(O)/C=C/C=O` (stereo not drawn) has an IC50 of 6 to 23 µM (Mitogen-activated protein kinase kinase kinase 20, Cys22 (MAP3K20, Homo sapiens, UniProt Q9NYL2); cysteine probe labelling, competitive isoTOP-ABPP; MDA-MB-231 proteome).
`O=C(Nc1ccccc1Nc1ccccc1)c1cccnc1F` gave an IC50 of > 100 µM (Succinate dehydrogenase complex (Sus scrofa, UniProt A5GZW8+D0VWV4+Q007T0+Q0QF01); enzyme activity, inhibitor, double-antibody sandwich ELISA).
For `C#Cc1cccc(Nc2ncnc3cc(OC)c(OCCCN4CCOCC4)cc23)c1`, the IC50 was 3.45 ± 0.21 µM (Platelet-derived growth factor receptor alpha (PDGFRA, Homo sapiens, UniProt P16234); enzyme activity, inhibitor; 30 min, together with: ATP 80.8 µM).
`C=CC(=O)Nc1cc(Nc2nccc(-c3cn(C)c4ccccc34)n2)c(OCC(F)(F)F)nc1N(C)CCN(C)C` has an IC50 of > 100 µM (Cytochrome P450 2C8 (CYP2C8, Homo sapiens, UniProt P10632); enzyme activity, inhibitor; human, liver microsomes).
For `COc1ccc2c(c1)CCCN2C(=O)CCl`, the IC50 was 36 ± 1 µM (Aldo-keto reductase family 1 member B10 (AKR1B10, Homo sapiens, UniProt O60218); probe labelling, ELISA-ABPP competition; HEK-293T lysate, transfected; 1 h, together with: compound-biotin 1 µM).
With `OC[C@H]1[C@@H](O)[C@@H](O)CN1Cc1ccncc1` the IC50 was 770 µM (Golgi alpha-mannosidase IIb (Drosophila melanogaster, UniProt Q9VF33); pH 6.0, 0.5 mM CoCl2, together with: 2 mM pNP-Man).
The IC50 of `N[C@@H](Cc1c[nH]c2ccc(OCc3ccc(-c4ccco4)cc3)cc12)C(=O)O` is reported as 31 µM (Large neutral amino acids transporter small subunit 1 (SLC7A5, Homo sapiens, UniProt Q01650); transporter uptake, inhibitor, radiometric).
`CC(C)C[C@@H](NC(=O)[C@@H](Cc1ccccc1)NC(=O)[C@H]1CCCN1C(=O)[C@@H](CCC(N)=O)NC(=O)[C@H](NC(=O)[C@H]1CCCN1C(=O)[C@@H](CCCNC(=N)N)NC(=O)[C@@H](CO)NC(=O)[C@@H](CCC(N)=O)NC(=O)[C@@H](CC(=O)O)NC(=O)[C@H](N)[C@H](C)O)C(C)C)C(=O)N[C@H](CC(N)=O)C(=O)N[C@H](CC(C)C)C(=O)N[C@@H](C(=O)N[C@@H](C(=O)N1CCC[C@@H]1C(=O)N[C@H](CCCNC(=N)N)C(=O)N[C@H](CCCCN)C(=O)N1CCC[C@@H]1C(=O)N[C@H](CCCNC(=N)N)C(=O)N1CCC[C@@H]1C(=O)N1CCC[C@@H]1C(=O)N[C@H](CCCNC(=N)N)C(=O)N[C@H](CCCNC(=N)N)C(=O)N[C@H](CCCNC(=N)N)C(=O)N[C@H](CCC(N)=O)C(=O)N[C@H](CCCNC(=N)N)C(=O)N[C@H](CCCNC(=N)N)C(=O)N[C@H](CCCCN)C(=O)N[C@H](CCCCN)C(=O)N[C@H](CCCNC(=N)N)C(=O)NCC(N)=O)[C@H](C)O)[C@H](C)O` gave an IC50 of 355 ± 79 µM (Mitogen-activated protein kinase 9 (MAPK9, Homo sapiens, UniProt P45984); kinase activity, inhibitor, radiometric; pH 7.5, 30 °C, together with: GST-c-Jun substrate).
`O=C(Nc1nc2cc(C(F)(F)F)cc(NC3CC3)n2n1)c1cccnc1` has an IC50 of 4.8 µM (Casein kinase I isoform delta (CSNK1D, Homo sapiens, UniProt P48730)).
For `N=C(NCCCCC(N)C(N)=O)NCCSCC1OC(n2cnc3c(N)ncnc32)C(O)C1O` (stereo not drawn), the IC50 was 8.3 µM (Protein arginine N-methyltransferase 1 (PRMT1, Homo sapiens, UniProt Q99873); enzyme activity, inhibitor, fluorescence).
`O=C(O[C@@H]1Cc2c(O)cc(O)cc2O[C@@H]1c1ccc(O)c(O)c1)c1cc(O)c(O)c(O)c1` has an IC50 of 27.3 µM (maltase, rat; enzyme activity, inhibitor; rat intestinal brush border vesicles).
The IC50 of `Cc1[nH]c2ccccc2c1CCNC(=O)c1ccccc1F` is reported as 17 µM (ACTR2/ACTR3 (Bos taurus, UniProt A7MB62+P61157); actin polymerization, inhibitor, pyrenyl-actin; 3 µM actin, 30% pyrenyl, together with: 5 nM Arp2/3 complex, 1 µM N-WASp-VCA).
The IC50 of `O=c1ccn([C@@H]2O[C@H](COP(=O)(O)CP(=O)(O)O)[C@@H](O)[C@H]2O)c(=O)[nH]1` is reported as 9 µM (UDP-N-acetylglucosamine--peptide N-acetylglucosaminyltransferase 110 kDa subunit (OGT, Homo sapiens, UniProt O15294); enzyme activity, inhibitor, radiometric).
